Measured values from different studies.
Parts stem from different laboratories: compare values within a part only. Substitutions count along the parent as printed.

Sample 1
Target: Prothrombin, mature alpha-thrombin (F2, Homo sapiens, UniProt P00734)
Method: aptamer microarray, sandwich
Molecule type: DNA with 2'F-ANA
Medium: in vitro
Tested at: 200 nM
Setting: whole 15-mer aptamer, many near background
Added: Cy3 exosite-II aptamer, 400 nM
Direction: higher = stronger binding
Quantity: mean fluorescence intensity
Strand: GGTTGGTGTGGTTGG
2'F-ANA at 1 2 3 6 13 15: 153 a.u.
2'F-ANA at 1 2 4 5 6 7 8 9 10 11 12 13 15: 54.4 a.u.
2'F-ANA at 2 4 5 7 8 12 15: 169 a.u.
2'F-ANA at 5 6 8 10 12 13 15: 182 a.u.
2'F-ANA at 5 6 7 9 11 15: 57.6 a.u.
2'F-ANA at 1 4 8 9 10 12 13 15: 53.6 a.u.
2'F-ANA at 1 3 6 9 10 12 13 14 15: 65.4 a.u.
2'F-ANA at 1 3 4 5 6 7 8 10 11 12 13: 60.3 a.u.
2'F-ANA at 1 2 4 5 7 8 9 12 14 15: 48.1 a.u.
2'F-ANA at 1 2 6 7 10 12 13: 60.8 a.u.
2'F-ANA at 1 6 8 9 10 12 14: 46.8 a.u.
2'F-ANA at 2 3 4 13 15: 463 a.u.
2'F-ANA at 1 6 7 9 11 12 13 14 15: 61 a.u.
2'F-ANA at 1 2 5 6 10 11 12 15: 52.6 a.u.
2'F-ANA at 2 3 7 8 11 13 14: 484 a.u.
2'F-ANA at 2 3 5 7 9 10 14: 82.6 a.u.
2'F-ANA at 1 3 5 11 12 13 15: 83.4 a.u.
2'F-ANA at 2 3 6 7 8 9 15: 774 a.u.

Sample 2
Target: ABI1, truncated, D143A, DHFR fusion (Arabidopsis thaliana, UniProt P49597)
Method: DHFR PCA, dose-response
Medium: yeast
Setting: Hill fit, mean, not affinity
Added: (+)-ABA, dose series
Direction: lower = more sensitive
Quantity: ABA EC50
Parent: PYL1, truncated, DHFR fusion (Arabidopsis thaliana, UniProt Q8VZS8); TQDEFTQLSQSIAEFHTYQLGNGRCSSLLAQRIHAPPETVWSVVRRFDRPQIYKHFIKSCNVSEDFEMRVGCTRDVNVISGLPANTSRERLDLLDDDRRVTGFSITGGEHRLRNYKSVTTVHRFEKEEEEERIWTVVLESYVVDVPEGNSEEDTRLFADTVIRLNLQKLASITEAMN
S9P: 41.9 µM
M68W: 22.6 µM
H34G: 3.99 µM
G81E: 222 µM
T6E: 1.86 µM
V70D: 64.9 µM
E139D: 461 µM
D75A: 3.87 µM
S104I: 706 µM
E64D: 2.52 µM
N22W: 6.67 µM
I12A: 52.7 µM
S80Q: 159 µM
Q10T: 1.33 µM
R32L: 2.93 µM
E14D: 3.86 µM
V62M: 5.08 µM
G148N: 5.75 µM

Sample 3
Target: RNA binding protein fox-1 homolog 2, RRM domain, GST-SBP tag (RBFOX2, Homo sapiens, UniProt O43251-10, residues 100-194)
Method: RNA Bind-n-Seq
Molecule type: RNA
Medium: in vitro
Tested at: 365 nM
Setting: natural RNA segment, single round, ends assumed
Baseline: no-protein control
Direction: higher = stronger binding
Quantity: RBNS enrichment (R)
Shared flanks, not repeated: GGGAGUUCUACAGUCCGACGAUC … UGGAAUUCUCGGGUGCCAA
Target sequence (chain): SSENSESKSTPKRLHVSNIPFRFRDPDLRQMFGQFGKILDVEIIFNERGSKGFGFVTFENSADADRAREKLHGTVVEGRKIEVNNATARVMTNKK
AGCCCAGCGCAUCACUCUCGGCUUGCUGGUGCAGUUCACCAUCUCACUGGCCCUACAACUGCCUUAGAGGAGUCAGCUGUCCAGUUUUAGAUCCCAGGAGUCACAGCAGA: 0.486
UACUAAAAAUACAAAAUUAGCCAGAUGUGGUGGCGCACACCUGUAAUCCCAGCUACUCAGGAAGCUGAGGCAGGAAAAUCGCUUGAACCUGGGAGGUGGAAGUUGCAGUG: 0.461
UCCUACCUUUUGACAUUGUGACUUGGCUUUGUUAAAAACUUGCAAAAAAAAUCAUGUUUUAAAUGUUAUGAUUUUGUGUUAGGCUGAAUUUAUAGCUGUCCUUGACCUCG: 1.27
CCAUGCCACCACUUGGGUUUUUUCCAUGGGAAGCAGCCUGCUGGGUGUGCAAGGCCGAGUGAUGGCUGAUCAAUCAAAGCCGUGGUCUAGGACCAGCUCCCACGUGCCAU: 0.305
AGGCACAGGAGGUCAGAGGUGAUGCUGAGGACAGGCCAGAACUCAUCCCAGCACCAGUCUGCUUGAGCCCUGCACUCACUGCUCGGGAAUGGCAAGCUCCCAGAUUCCUU: 0.684
CCUAUCAUCUUGUUAACACUAGAUUCUUCUGAGAUUCAAAAAGAAAAAUCACUGUCAGAGCUAGCCUUGCCUAGUGAGUCUGUGUCCACAGGCUGUAACAGGGUGGAAGA: 0.567
UCCUGGGGGAGGCAGGGGUUGGCAGACCCUUGCCUGCGUGGUGCCGUCCUGCUCAUGUGGUAGGCUAGCAAUAUUUUGGUUAAAAUCAUGUUUGUGACUGUAACCAUUUG: 0.389
GAGUUCCAGGACAGCCAGAGCUAUACAGAGAAACCCUGUCUUGGAAAAAAAAAAAAAAGACUCAGCAAUGUUCACAUUCUUCAUGUCUAAUCCCUCCUUGCCCACCCAUU: 0.561

Sample 4
Target: Ras GTPase-activating protein-binding protein 1, C-terminal RGG region (G3BP1, Homo sapiens, UniProt Q13283)
Sequence of UniProt Q13283 (whole entry, looked up): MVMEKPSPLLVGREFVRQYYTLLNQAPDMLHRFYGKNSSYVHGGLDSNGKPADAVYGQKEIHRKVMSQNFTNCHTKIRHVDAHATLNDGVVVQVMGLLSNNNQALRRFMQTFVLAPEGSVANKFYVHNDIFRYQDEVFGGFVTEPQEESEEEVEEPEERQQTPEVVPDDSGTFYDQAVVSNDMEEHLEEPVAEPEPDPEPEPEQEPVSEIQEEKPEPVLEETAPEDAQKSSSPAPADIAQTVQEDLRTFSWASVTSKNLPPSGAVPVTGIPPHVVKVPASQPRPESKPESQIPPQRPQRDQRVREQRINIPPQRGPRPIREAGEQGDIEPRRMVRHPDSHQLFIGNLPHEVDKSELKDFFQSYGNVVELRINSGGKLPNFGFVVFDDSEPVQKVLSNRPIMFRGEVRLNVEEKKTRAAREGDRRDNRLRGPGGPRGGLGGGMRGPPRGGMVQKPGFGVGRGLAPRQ
Method: RNA Bind-n-Seq
Molecule type: RNA
Medium: in vitro
Tested at: 1 µM
Setting: whole 134-nt RNA, ends assumed
Added: 150 mM KCl
Baseline: input library
Direction: higher = stronger binding
Quantity: log2 enrichment
Shared flanks, not repeated: GGGAGUUCUACAGUCCGACGAUC … UGGAAUUCUCGGGUGUCAAGG
GUCCUGUGCUACACAUCGUAUGUACCGAAUCGGGGUUUGGGGUUUUUUUGGGGUGGGGAAAGUAUUAUGUUACGCCGUUCGGAUCUGCAC: 1.69
CACAGACAACACGCACCCACGCAGACACAGAGGGAAGGGGUUGGGAUGGGGACAGGGUGCACAGCAGGGCGGGGUAGGACCCCAGCCCCU: -0.0924
CCUGUGCUACACAUCGUAUGUACCGAAUCGGGGUUUUUUUGGGGAAAGGGGAAAAAGGGGAAAGUAUUAUGUUACGCCGUUCGGAUCUGC: 0.114
AGUCCUGUGCUACACAUCGUAUGUACCGAAUCGGAAAAAGGAAAAAGGGAAAAAGGGGAAAGUAUUAUGUUACGCCGUUCGGAUCUGCAC: -1.82
CAAGUCCUGUGCUACACAUCGUAUGUACCGAAUCGGGAAAGGGAAAGGGAAAGGGGAAAGUAUUAUGUUACGCCGUUCGGAUCUGCACUU: 1.46
UUAUCACCAGGACUGCCAUGUUCCCAGGGCUCCAGCCCCUGGAGAGGGAGAGGGCACAUCCUGGGUAUGCCGCCAGUGUGUCUUUGCGAU: -1.15
AGUCCUGUGCUACACAUCGUAUGUACCGAAUCGGUUUUUGGGGUUUUUGGGUUUUUGGAAAGUAUUAUGUUACGCCGUUCGGAUCUGCAC: -1.1
CAAGUCCUGUGCUACACAUCGUAUGUACCGAAUCGGUUUUUGGUUUUUGGUUUGGAAAGUAUUAUGUUACGCCGUUCGGAUCUGCACUUC: -1.59
AGUCCUGUGCUACACAUCGUAUGUACCGAAUCGGGAGGGAAAAAGGGUUUUUUUGGGAAAGUAUUAUGUUACGCCGUUCGGAUCUGCACU: 0.482

Some of these lines once more (sample 3):
AGCCCAGCGCAUCACUCUCGGCUUGCUGGUGCAGUUCACCAUCUCACUGGCCCUACAACUGCCUUAGAGGAGUCAGCUGUCCAGUUUUAGAUCCCAGGAGUCACAGCAGA: 0.486
UACUAAAAAUACAAAAUUAGCCAGAUGUGGUGGCGCACACCUGUAAUCCCAGCUACUCAGGAAGCUGAGGCAGGAAAAUCGCUUGAACCUGGGAGGUGGAAGUUGCAGUG: 0.461
UCCUACCUUUUGACAUUGUGACUUGGCUUUGUUAAAAACUUGCAAAAAAAAUCAUGUUUUAAAUGUUAUGAUUUUGUGUUAGGCUGAAUUUAUAGCUGUCCUUGACCUCG: 1.27
CCAUGCCACCACUUGGGUUUUUUCCAUGGGAAGCAGCCUGCUGGGUGUGCAAGGCCGAGUGAUGGCUGAUCAAUCAAAGCCGUGGUCUAGGACCAGCUCCCACGUGCCAU: 0.305
AGGCACAGGAGGUCAGAGGUGAUGCUGAGGACAGGCCAGAACUCAUCCCAGCACCAGUCUGCUUGAGCCCUGCACUCACUGCUCGGGAAUGGCAAGCUCCCAGAUUCCUU: 0.684
CCUAUCAUCUUGUUAACACUAGAUUCUUCUGAGAUUCAAAAAGAAAAAUCACUGUCAGAGCUAGCCUUGCCUAGUGAGUCUGUGUCCACAGGCUGUAACAGGGUGGAAGA: 0.567
UCCUGGGGGAGGCAGGGGUUGGCAGACCCUUGCCUGCGUGGUGCCGUCCUGCUCAUGUGGUAGGCUAGCAAUAUUUUGGUUAAAAUCAUGUUUGUGACUGUAACCAUUUG: 0.389
GAGUUCCAGGACAGCCAGAGCUAUACAGAGAAACCCUGUCUUGGAAAAAAAAAAAAAAGACUCAGCAAUGUUCACAUUCUUCAUGUCUAAUCCCUCCUUGCCCACCCAUU: 0.561
